# Assay results pooled from the literature.
# A part holds a random share of what one study measured.
# Sequence of UniProt P57058 (whole entry, looked up): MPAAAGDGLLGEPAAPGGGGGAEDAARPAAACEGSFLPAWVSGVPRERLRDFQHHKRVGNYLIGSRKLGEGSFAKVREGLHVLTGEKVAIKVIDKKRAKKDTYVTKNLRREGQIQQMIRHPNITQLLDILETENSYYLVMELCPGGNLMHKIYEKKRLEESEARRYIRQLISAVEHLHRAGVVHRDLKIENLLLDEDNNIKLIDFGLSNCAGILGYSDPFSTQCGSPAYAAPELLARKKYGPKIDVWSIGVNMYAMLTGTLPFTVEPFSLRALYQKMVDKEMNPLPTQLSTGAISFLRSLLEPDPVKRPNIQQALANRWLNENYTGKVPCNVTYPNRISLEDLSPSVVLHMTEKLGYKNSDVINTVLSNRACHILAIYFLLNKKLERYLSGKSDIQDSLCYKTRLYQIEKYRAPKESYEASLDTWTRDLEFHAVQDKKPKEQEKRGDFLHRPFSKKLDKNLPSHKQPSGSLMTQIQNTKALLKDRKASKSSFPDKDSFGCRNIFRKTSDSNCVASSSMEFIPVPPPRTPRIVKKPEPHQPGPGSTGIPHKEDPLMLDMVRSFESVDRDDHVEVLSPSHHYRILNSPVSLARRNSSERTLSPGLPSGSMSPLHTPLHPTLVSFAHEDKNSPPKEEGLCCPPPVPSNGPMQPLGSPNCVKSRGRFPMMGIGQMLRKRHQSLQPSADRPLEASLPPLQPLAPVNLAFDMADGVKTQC
# Sequence of UniProt P36894 (whole entry, looked up): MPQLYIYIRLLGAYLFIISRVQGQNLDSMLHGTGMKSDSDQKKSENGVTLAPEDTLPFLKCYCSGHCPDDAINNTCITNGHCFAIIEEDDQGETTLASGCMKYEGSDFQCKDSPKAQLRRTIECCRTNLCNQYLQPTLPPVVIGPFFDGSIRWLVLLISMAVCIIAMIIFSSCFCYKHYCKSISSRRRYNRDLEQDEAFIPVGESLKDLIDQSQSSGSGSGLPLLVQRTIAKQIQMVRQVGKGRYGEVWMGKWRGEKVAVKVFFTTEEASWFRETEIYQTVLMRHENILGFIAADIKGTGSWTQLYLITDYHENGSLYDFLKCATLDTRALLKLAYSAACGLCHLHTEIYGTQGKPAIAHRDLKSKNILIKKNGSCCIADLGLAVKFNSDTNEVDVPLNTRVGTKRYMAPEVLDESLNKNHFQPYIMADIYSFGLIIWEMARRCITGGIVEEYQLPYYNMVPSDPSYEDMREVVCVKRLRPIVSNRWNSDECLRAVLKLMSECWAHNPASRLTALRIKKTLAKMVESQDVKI
# Sequence of UniProt O75716 (whole entry, looked up): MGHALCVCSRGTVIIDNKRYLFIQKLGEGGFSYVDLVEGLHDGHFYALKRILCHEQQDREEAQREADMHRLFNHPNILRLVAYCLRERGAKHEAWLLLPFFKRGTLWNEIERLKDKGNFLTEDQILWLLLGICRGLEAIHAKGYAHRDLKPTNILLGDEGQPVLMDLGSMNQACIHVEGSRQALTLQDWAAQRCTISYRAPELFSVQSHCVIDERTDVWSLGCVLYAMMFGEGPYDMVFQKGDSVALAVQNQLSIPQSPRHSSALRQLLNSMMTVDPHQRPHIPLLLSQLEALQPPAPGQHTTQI
# Sequence of UniProt Q8IWQ3 (whole entry, looked up): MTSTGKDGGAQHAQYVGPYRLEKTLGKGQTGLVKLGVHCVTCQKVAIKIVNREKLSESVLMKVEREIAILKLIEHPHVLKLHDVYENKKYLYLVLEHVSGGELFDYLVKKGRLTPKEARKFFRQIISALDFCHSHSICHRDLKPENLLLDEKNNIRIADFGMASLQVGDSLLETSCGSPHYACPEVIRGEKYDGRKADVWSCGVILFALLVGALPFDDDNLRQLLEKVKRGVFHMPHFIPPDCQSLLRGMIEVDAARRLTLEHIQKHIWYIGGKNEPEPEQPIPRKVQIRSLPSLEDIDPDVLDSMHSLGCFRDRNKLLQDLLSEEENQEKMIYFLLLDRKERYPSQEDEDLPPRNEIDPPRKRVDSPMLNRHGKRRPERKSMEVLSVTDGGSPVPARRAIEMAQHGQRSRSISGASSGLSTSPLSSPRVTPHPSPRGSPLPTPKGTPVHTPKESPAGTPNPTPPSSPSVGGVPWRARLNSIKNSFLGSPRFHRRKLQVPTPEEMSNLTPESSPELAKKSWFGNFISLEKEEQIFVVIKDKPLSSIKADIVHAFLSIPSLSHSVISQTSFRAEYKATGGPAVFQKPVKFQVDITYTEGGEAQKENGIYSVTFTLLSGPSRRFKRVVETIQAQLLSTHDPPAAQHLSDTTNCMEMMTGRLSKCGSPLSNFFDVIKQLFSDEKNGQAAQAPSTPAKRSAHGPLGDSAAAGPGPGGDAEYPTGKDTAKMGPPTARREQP
# Sequence of UniProt P10721 (whole entry, unmodified, looked up): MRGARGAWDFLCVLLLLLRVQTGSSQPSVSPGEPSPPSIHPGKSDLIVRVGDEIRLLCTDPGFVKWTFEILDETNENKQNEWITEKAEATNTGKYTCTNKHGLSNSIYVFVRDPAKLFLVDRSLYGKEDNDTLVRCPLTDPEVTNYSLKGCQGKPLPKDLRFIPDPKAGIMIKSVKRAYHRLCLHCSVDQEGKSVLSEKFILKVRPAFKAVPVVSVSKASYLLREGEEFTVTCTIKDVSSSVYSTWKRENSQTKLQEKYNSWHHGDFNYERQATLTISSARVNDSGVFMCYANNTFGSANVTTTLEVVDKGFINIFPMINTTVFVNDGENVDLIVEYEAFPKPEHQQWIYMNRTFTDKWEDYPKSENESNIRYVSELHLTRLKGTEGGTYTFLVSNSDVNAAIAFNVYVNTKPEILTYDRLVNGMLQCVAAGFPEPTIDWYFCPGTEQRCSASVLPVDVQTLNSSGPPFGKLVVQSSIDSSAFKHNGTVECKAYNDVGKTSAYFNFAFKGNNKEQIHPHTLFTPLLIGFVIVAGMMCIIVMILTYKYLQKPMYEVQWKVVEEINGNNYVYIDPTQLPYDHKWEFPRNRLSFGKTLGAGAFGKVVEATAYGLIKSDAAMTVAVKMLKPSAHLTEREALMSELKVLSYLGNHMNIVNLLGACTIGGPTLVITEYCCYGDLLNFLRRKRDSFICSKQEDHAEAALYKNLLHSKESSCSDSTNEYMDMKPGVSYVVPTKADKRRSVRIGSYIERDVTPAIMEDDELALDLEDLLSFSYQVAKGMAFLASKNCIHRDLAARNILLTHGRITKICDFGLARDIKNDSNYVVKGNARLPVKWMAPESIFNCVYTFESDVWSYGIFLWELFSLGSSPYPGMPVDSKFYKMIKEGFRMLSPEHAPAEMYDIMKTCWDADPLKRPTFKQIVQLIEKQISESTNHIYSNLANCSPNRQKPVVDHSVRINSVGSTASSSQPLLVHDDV
# Sequence of UniProt Q96PN8 (whole entry, looked up): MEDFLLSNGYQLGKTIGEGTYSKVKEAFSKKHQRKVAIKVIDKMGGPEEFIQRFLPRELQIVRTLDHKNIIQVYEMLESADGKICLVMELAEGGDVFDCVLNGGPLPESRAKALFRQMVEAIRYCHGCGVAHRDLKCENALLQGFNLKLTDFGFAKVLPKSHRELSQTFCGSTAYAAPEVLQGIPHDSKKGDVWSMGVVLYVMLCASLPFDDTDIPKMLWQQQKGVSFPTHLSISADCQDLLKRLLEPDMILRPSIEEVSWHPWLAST
# Sequence of UniProt P78368 (whole entry, looked up): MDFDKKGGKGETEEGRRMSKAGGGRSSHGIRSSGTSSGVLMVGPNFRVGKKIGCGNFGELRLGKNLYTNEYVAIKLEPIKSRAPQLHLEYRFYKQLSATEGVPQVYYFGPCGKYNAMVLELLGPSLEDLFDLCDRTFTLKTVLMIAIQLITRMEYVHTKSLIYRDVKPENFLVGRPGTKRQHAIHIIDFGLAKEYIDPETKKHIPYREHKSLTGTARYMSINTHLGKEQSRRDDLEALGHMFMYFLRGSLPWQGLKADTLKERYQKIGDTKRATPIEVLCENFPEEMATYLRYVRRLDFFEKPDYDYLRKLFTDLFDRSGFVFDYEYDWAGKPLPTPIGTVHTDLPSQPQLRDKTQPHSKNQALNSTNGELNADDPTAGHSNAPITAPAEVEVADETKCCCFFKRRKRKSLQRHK

# Block 1
# Target: Lymphokine-activated killer T-cell-originated protein kinase (PBK, Homo sapiens, UniProt Q96KB5)
# Read-out: enzyme activity
# Action: inhibitor
# Concentration: 0.5 µM
# Relative to: control
# Target sequence (Q96KB5 1-322): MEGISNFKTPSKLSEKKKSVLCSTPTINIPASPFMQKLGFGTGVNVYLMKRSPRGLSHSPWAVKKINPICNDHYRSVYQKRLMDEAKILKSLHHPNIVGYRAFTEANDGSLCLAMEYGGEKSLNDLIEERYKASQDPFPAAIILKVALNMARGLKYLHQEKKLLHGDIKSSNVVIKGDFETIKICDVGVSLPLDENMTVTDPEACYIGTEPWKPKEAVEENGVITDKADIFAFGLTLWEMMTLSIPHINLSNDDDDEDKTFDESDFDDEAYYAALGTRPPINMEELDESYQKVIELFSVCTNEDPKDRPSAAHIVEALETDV
SMILES,remaining activity
Oc1cccc(-c2nc(N3CCOCC3)c3oc4ncccc4c3n2)c1,88.7%
COc1ccc(COc2ccc(Cc3cnc(N)nc3N)cc2OC)cc1,99.4%
c1ccc2c(-c3ccncc3)c[nH]c2c1,97.1%
COc1cccc(-c2cc(=O)c3ccccc3o2)c1N,97.6%
CCCNC(=O)Nc1ccc(Oc2ncnc3cc(OC)c(OC)cc23)cc1Cl,66.2%
c1ccc(-c2n[nH]c3c2oc2ccccc23)cc1,94.8%
O=C1Nc2ccc(Br)cc2/C1=C/c1cc2c([nH]1)CCCC2,87.8%
Cc1ccc(S(=O)(=O)/C=C/C#N)cc1,83.2%
O=Nc1c(-c2c(O)[nH]c3cc(Br)ccc23)[nH]c2ccccc12,109%
O=C1Nc2ccccc2/C1=C\c1c(Cl)[nH]c2ccccc12,102%
O=C1Cc2c([nH]c3ccc(Br)cc23)-c2ccccc2N1,99.3%
O=C1NC(=O)c2c1c1c3ccccc3[nH]c1c1[nH]c3cc(Br)ccc3c21,86.3%
O=c1cc(N2CCOCC2)oc2c(-c3ccccc3)cccc12,110%
Cc1cc(Nc2cc(N3CCN(C)CC3)nc(Sc3ccc(NC(=O)C4CC4)cc3)n2)[nH]n1,107%
N#Cc1cnc2cnc(NCc3cccnc3)cc2c1Nc1ccc(F)c(Cl)c1,84.8%
O=C1NC(=O)c2c1c1c3ccccc3[nH]c1n1cncc21,72.4%
CCCCc1c(-c2ccc(OC)cc2)[nH]c2nccnc12,80.6%
O=C(c1cc2cc(O)ccc2[nH]1)c1cc2cc(O)ccc2[nH]1,100%
CN(C)S(=O)(=O)c1ccc2c(c1)/C(=C/c1cc3c([nH]1)CCCC3)C(=O)N2,99.7%
CN1CCN(c2ccc3nc(-c4c(N)c5c(F)cccc5[nH]c4=O)[nH]c3c2)CC1,101%
COc1ccc2c(c1)c(C1=C(c3c[nH]c4ccccc34)C(=O)NC1=O)cn2CCCN(C)C,96.8%

# Block 2
# Compound: C=CCc1ccc(O)c(-c2ccc(O)c(CC=C)c2)c1
# Read-out: chloride current
# Technique: whole-cell voltage clamp
# ANO1 del476-501/F807A: Anoctamin-1 (ANO1, Homo sapiens, UniProt Q5XXA6, del476-501/F807A)
# Sequence of UniProt Q5XXA6 (whole entry, unmodified, looked up): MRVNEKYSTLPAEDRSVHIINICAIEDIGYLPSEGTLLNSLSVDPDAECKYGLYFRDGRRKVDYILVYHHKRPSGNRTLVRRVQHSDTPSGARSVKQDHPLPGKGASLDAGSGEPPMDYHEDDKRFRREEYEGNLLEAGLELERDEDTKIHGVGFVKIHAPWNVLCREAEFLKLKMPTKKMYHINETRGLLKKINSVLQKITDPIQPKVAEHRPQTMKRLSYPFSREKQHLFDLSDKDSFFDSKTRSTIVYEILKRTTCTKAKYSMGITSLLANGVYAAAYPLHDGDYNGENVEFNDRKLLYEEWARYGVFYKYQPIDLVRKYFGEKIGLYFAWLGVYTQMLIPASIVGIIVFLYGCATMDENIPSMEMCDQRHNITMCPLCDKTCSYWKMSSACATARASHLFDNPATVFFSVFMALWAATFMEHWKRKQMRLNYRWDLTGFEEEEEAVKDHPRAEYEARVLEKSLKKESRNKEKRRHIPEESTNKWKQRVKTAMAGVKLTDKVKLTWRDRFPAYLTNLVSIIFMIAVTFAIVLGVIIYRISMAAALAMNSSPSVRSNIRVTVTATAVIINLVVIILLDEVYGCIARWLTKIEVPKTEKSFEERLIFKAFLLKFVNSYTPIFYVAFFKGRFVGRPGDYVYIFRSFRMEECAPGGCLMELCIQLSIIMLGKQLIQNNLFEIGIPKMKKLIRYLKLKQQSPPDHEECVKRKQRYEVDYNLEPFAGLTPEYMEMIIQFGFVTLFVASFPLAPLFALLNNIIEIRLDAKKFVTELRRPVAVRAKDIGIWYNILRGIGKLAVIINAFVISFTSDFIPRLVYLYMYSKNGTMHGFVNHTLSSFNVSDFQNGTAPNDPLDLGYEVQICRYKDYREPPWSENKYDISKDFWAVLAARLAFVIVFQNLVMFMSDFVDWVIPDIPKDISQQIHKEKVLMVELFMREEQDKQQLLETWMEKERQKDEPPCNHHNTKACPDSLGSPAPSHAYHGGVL
target,action,concentration,setting,together with,IC50 [µM]
ANO1 del476-501/F807A,,,membrane voltage 60 mV,,18.6
ANO1 del476-501/F807A,,,membrane voltage -100 mV,,50.6
"Anoctamin-1 (ANO1, Homo sapiens, UniProt Q5XXA6, del476-501/F628I)",inhibitor,,F602I mutant at -80 mV,,17.7
"Anoctamin-1 (ANO1, Homo sapiens, UniProt Q5XXA6, del476-501/F807Y)",inhibitor,,mutant F781Y,,13.4
"Anoctamin-1 (ANO1, Homo sapiens, UniProt Q5XXA6, del476-501/F803I)",inhibitor,80 mV holding voltage,,,7.81
"Anoctamin-1 (ANO1, Homo sapiens, UniProt Q5XXA6, del476-501/F803W)",inhibitor,,mutant F777W at 100 mV,300 nM Ca2+,7.43
"Anoctamin-1 (ANO1, Homo sapiens, UniProt Q5XXA6, del476-501/E650A)",,,membrane voltage 100 mV,,4.39
"Anoctamin-1 (ANO1, Homo sapiens, UniProt Q5XXA6, del476-501/R631D)",inhibitor,,R605D mutant at 100 mV,,26
"Anoctamin-1 (ANO1, Homo sapiens, UniProt Q5XXA6, del476-501/F628W)",inhibitor,,mutant F602W,,15.1
"Anoctamin-1 (ANO1, Homo sapiens, UniProt Q5XXA6, del476-501/R631K)",inhibitor,,R605K mutant at -100 mV,,21.1

# Block 3
# Structure (SMILES): CO[C@@H](C)c1c(Nc2ccc([C@@H](N(C)C(=O)C3CCS(=O)(=O)CC3)C(F)(F)F)cc2)cnc2cc(Cl)nn12
# Technique: competition with immobilised ligand
# Concentration: 1 µM
target,read-out,remaining binding
"BMPR1A (Homo sapiens, UniProt P36894)",binding,100%
"PRKG1 (Homo sapiens, UniProt Q13976)",cell-free assay,92%
"PIK3C3 (Homo sapiens, UniProt Q8NEB9)",cell-free assay,100%
"PRKAA2 (Homo sapiens, UniProt P54646)",cell-free assay,78%
"STK16 (Homo sapiens, UniProt O75716)",cell-free assay,100%
"Tyrosine-protein kinase JAK1, JH2 (JAK1, Homo sapiens, UniProt P23458)",cell-free assay,89%
"ERBB3 (Homo sapiens, UniProt P21860)",cell-free assay,100%
"KIT (Homo sapiens, UniProt P10721, D816V)",cell-free assay,99%
"PI4KB (Homo sapiens, UniProt Q9UBF8)",cell-free assay,100%
"BRSK2 (Homo sapiens, UniProt Q8IWQ3)",cell-free assay,90%
"TSSK3 (Homo sapiens, UniProt Q96PN8)",cell-free assay,79%
"DCLK3 (Homo sapiens, UniProt Q9C098)",cell-free assay,100%
"PRKCE (Homo sapiens, UniProt Q02156)",cell-free assay,94%
"WNK3 (Homo sapiens, UniProt Q9BYP7)",cell-free assay,84%
"PIK3C2B (Homo sapiens, UniProt O00750)",cell-free assay,89%
"EGFR (Homo sapiens, UniProt P00533, del747-752/P753S)",cell-free assay,100%
"HUNK (Homo sapiens, UniProt P57058)",cell-free assay,100%
"Insulin receptor (INSR, Homo sapiens, UniProt P06213)",cell-free assay,95%
"MAP2K1 (Homo sapiens, UniProt Q02750)",cell-free assay,100%
"CSNK1G2 (Homo sapiens, UniProt P78368)",cell-free assay,84%
"PKN1 (Homo sapiens, UniProt Q16512)",cell-free assay,99%
"CAMK2G (Homo sapiens, UniProt Q13555)",cell-free assay,84%

# Block 4
# Organism: Sarcocystis neurona
# Read-out: parasite growth
# Concentration: 10 µM
# Time: 96 h
# Setting: first screen
# Relative to: untreated
Structure (SMILES),log2 fold change
[H]/N=C(/NC)NCCC[C@H](N)C(=O)O,0.0343
Cn1nnc2c(C(N)=O)ncn2c1=O,0.05
CCN(CC)CC(=O)Nc1c(C)cccc1C,0.21
COc1ccccc1OCC(O)COC(N)=O (centres unmarked),0.13
NCc1ccc(S(N)(=O)=O)cc1,0.33
CN1CCN(C2=Nc3cc(Cl)ccc3Nc3ccccc32)CC1,0.15
CCCSc1ccc2nc(NC(=O)OC)[nH]c2c1,1.24
C[C@H]1O[C@@H](O[C@H]2[C@@H](O)C[C@H](O[C@H]3[C@@H](O)C[C@H](O[C@H]4CC[C@@]5(C)[C@H](CC[C@@H]6[C@@H]5C[C@@H](O)[C@]5(C)[C@@H](C7=CC(=O)OC7)CC[C@]65O)C4)O[C@@H]3C)O[C@@H]2C)C[C@H](O)[C@@H]1O,-1.43
COc1ccc(-c2cc(=O)c3c(OC)c(OC)c(OC)c(OC)c3o2)cc1OC,-0.52

# Some of these lines once more (block 4):
Structure (SMILES),log2 fold change
NCc1ccc(S(N)(=O)=O)cc1,0.33
COc1ccccc1OCC(O)COC(N)=O (centres unmarked),0.13
CN1CCN(C2=Nc3cc(Cl)ccc3Nc3ccccc32)CC1,0.15
COc1ccc(-c2cc(=O)c3c(OC)c(OC)c(OC)c(OC)c3o2)cc1OC,-0.52
[H]/N=C(/NC)NCCC[C@H](N)C(=O)O,0.0343
